Experimental data gathered from unrelated publications.
Protocols differ between the studies behind these lines.
Organism: Escherichia coli

Compound = CC[C@H](C)[C@@H]1NC(=O)CNC(=O)[C@H](CCCNC(=N)N)NC(=O)[C@H](Cc2ccc(O)cc2)NC(=O)[C@@H]2CSSC[C@H](NC1=O)C(=O)N[C@@H](Cc1ccc(O)cc1)C(=O)N[C@@H](CCCNC(=N)N)C(=O)N[C@@H](CCCNC(=N)N)C(=O)N[C@H](C(=O)N[C@@H](CCCNC(=N)N)C(=O)N[C@@H](Cc1c[nH]c3ccccc13)C(=O)N[C@@H](CCCCN)C(=O)O)CSSC[C@H](NC(=O)[C@H](Cc1c[nH]c3ccccc13)NC(=O)[C@H](Cc1c[nH]c3ccccc13)NC(=O)[C@@H](N)CCCCN)C(=O)N[C@@H](Cc1ccccc1)C(=O)N[C@@H](CCCNC(=N)N)C(=O)N[C@@H](C(C)C)C(=O)N2; test = bacterial growth, broth dilution, OD600; system = DH5α, LB medium; setting = 16 h, 37 °C; MIC = > 100 µM
Compound = CC[C@H](C)[C@H](NC(=O)[C@@H](CCCNC(=N)N)NC(=O)[C@H](CCCNC(=N)N)NC(=O)[C@@H]1CCCN1C(=O)[C@@H]1CCCN1C(=O)[C@H](CCCNC(=N)N)NC(=O)[C@@H]1CCCN1C(=O)[C@H](CCCNC(=N)N)NC(=O)[C@@H]1CCCN1C(=O)[C@H](CCSC)NC(=O)[C@H](Cc1ccc(O)cc1)NC(=O)[C@@H]1CCCN1C(=O)[C@@H]1CCCN1C(=O)[C@H](CCCCN)NC(=O)[C@H](CC(=O)O)NC(=O)[C@@H](N)C(C)C)C(=O)N[C@@H](Cc1ccc(O)cc1)C(=O)N[C@@H](CC(N)=O)C(=O)N[C@H](CCCNC(=N)N)C(N)=O; test = broth microdilution; system = ATCC 25922; setting = 18 h, 37 °C, 25% MHB2; MIC = 8 µg/mL
Compound = O=C(O)CN(CC(=O)O)CP(=O)(O)O; system = NDM-1 producer; setting = 32 µg/mL, MIC of meropenem, added: meropenem; MIC = 0.125 µg/mL
Compound = CCCCCCCCCCCC(=O)C(C)C(=O)N1CCC[C@H]1C(=O)NC(C)(C)C(=O)NC(C)(C)C(=O)NC(C)(C)C(=O)N[C@](C)(CC)C(=O)NCCC(=O)N[C@@H](C)C(=O)N[C@](C)(CC)C(=O)N[C@@H](C)C(=O)N[C@@H](CC(C)C)C(=O)N[C@](C)(CC)C(=O)NCCC(=O)N[C@@H](C)C(=O)N[C@](C)(CC)C(=O)NCCC(=O)N[C@@H](C)C(=O)NC(C)(C)C(=O)NC(C)(C)C(=O)NC(C)(C)C(=O)N[C@@H](C)C(=O)N[C@@H](CC(=O)O)C(=O)O (stereo partly drawn); system = BW25113; MIC = > 128 µg/mL
Compound = CC[C@H](C)[C@H](NC(=O)[C@@H](CCCNC(=N)N)NC(=O)[C@H](CCCNC(=N)N)NC(=O)[C@@H]1CCCN1C(=O)[C@@H]1CCCN1C(=O)[C@H](CCCNC(=N)N)NC(=O)[C@@H]1CCCN1C(=O)[C@H](CCCNC(=N)N)NC(=O)[C@@H]1CCCN1C(=O)[C@H](CC(C)C)NC(=O)[C@H](Cc1c[nH]cn1)NC(=O)[C@@H]1CCCN1C(=O)[C@@H]1CCCN1C(=O)[C@H](CCCCN)NC(=O)[C@H](CC(=O)O)NC(=O)[C@@H](N)C(C)C)C(=O)N[C@@H](Cc1ccc(O)cc1)C(=O)N[C@@H](CC(N)=O)C(=O)N[C@H](CCCNC(=N)N)C(N)=O; test = broth microdilution; system = MC4100; setting = 18 h, 37 °C, 25% MHB2; MIC = 4 µg/mL
Compound = CC[C@H](C)[C@H](NC(=O)[C@H](C)NC(=O)[C@@H](NC(=O)[C@H](CC(=O)O)NC(=O)[C@H](CCCCN)NC(=O)[C@H](CO)NC(=O)[C@@H](NC(=O)[C@H](CC(N)=O)NC(=O)[C@H](C)NC(=O)[C@@H](NC(=O)[C@H](CCC(=O)O)NC(=O)[C@H](CCCCN)NC(=O)[C@@H](NC(=O)[C@@H](NC(=O)[C@H](Cc1c[nH]cn1)NC(=O)[C@H](CCCCN)NC(=O)[C@@H](NC(=O)[C@H](CCCCN)NC(=O)[C@H](CCCCN)NC(=O)[C@@H](NC(=O)[C@H](CC(C)C)NC(=O)[C@H](CCCCN)NC(=O)[C@H](CC(N)=O)NC(=O)[C@H](Cc1ccccc1)NC(=O)[C@H](CCCNC(=N)N)NC(=O)[C@H](CCCCN)NC(=O)[C@H](CCCNC(=N)N)NC(=O)[C@H](Cc1ccccc1)NC(=O)CN)C(C)C)C(C)C)[C@@H](C)O)[C@@H](C)CC)[C@@H](C)O)C(C)C)C(C)C)C(=O)N[C@H](C(=O)N[C@@H](C)C(=O)NCC(=O)N[C@@H](CO)C(=O)NCC(=O)N[C@H](C(=O)N[C@@H](C)C(=O)N[C@H](C(=O)NCC(=O)N[C@@H](C)C(=O)N[C@@H](C)C(=O)N[C@@H](CCSC)C(N)=O)C(C)C)C(C)C)C(C)C; test = broth microdilution; system = RKI 131/03, CAMHB with 10% mouse serum; setting = 150 mM NaCl; MIC = 0.5 µg/mL
Compound = CC1(C)[C@H](NC(=O)/C(=N\OC2(C(=O)O)CC2)c2nsc(N)n2)C(=O)N1OS(=O)(=O)O; test = agar dilution; system = 08-85, mcr-1; MIC = 4 µg/mL
Compound = CC[C@H](C)[C@H](NC(=O)[C@@H](CCCNC(=N)N)NC(=O)[C@H](CCCNC(=N)N)NC(=O)[C@H](CCC(N)=O)NC(=O)[C@H](Cc1c[nH]c2ccccc12)NC(=O)[C@H](CCCNC(=N)N)NC(=O)[C@@H]1CCCN1C(=O)[C@H](CCCNC(=N)N)NC(=O)[C@@H]1CCCN1C(=O)[C@H](CC(C)C)NC(=O)[C@H](Cc1ccc(O)cc1)NC(=O)[C@@H]1CCCN1C(=O)[C@@H]1CCCN1C(=O)[C@H](CCCCN)NC(=O)[C@H](CC(=O)O)NC(=O)[C@@H](N)C(C)C)C(=O)N[C@@H](Cc1ccc(O)cc1)C(=O)N[C@@H](CC(N)=O)C(=O)N[C@H](CCCNC(=N)N)C(N)=O; test = broth microdilution; system = BW25113; setting = 18 h, 37 °C, 25% MHB2; MIC = 8 µg/mL
Compound = CC(C)C[C@@H](NC(=O)[C@@H](CC(C)C)NC(=O)[C@@H](CCCCN)NC(=O)[C@@H](CCCCNC(=O)[C@@H](CC(C)C)NC(=O)[C@@H](CC(C)C)NC(=O)[C@@H](CCCCNC(=O)[C@@H](CC(C)C)NC(=O)[C@@H](CCCCN)NC(=O)[C@@H](CCCCNC(=O)[C@@H](CC(C)C)NC(=O)[C@H](N)CCCCN)NC(=O)[C@@H](CC(C)C)NC(=O)[C@H](N)CCCCN)NC(=O)[C@@H](CC(C)C)NC(=O)[C@@H](CCCCN)NC(=O)[C@@H](CCCCNC(=O)[C@@H](CC(C)C)NC(=O)[C@H](N)CCCCN)NC(=O)[C@@H](CC(C)C)NC(=O)[C@H](N)CCCCN)NC(=O)[C@@H](CC(C)C)NC(=O)[C@@H](CC(C)C)NC(=O)[C@@H](CCCCNC(=O)[C@@H](CC(C)C)NC(=O)[C@@H](CCCCN)NC(=O)[C@@H](CCCCNC(=O)[C@@H](CC(C)C)NC(=O)[C@H](N)CCCCN)NC(=O)[C@@H](CC(C)C)NC(=O)[C@H](N)CCCCN)NC(=O)[C@@H](CC(C)C)NC(=O)[C@@H](CCCCN)NC(=O)[C@@H](CCCCNC(=O)[C@@H](CC(C)C)NC(=O)[C@H](N)CCCCN)NC(=O)[C@@H](CC(C)C)NC(=O)[C@H](N)CCCCN)C(N)=O; test = broth microdilution; system = Klebsiella pneumoniae blaOXA-48; setting = 20 h, 37 °C; MIC = 16 µg/mL
Compound = CC[C@H](C)[C@H](NC(=O)[C@@H](NC(=O)[C@H](CCCCN)NC(=O)[C@H](CCCCN)NC(=O)[C@@H](NC(=O)[C@H](Cc1c[nH]c2ccccc12)NC(=O)[C@H](CCCCN)NC(=O)[C@H](Cc1c[nH]c2ccccc12)NC(=O)[C@H](CC(C)C)NC(=O)[C@H](CCCCN)NC(=O)[C@H](CCCCN)NC(=O)[C@@H](N)C(C)C)[C@@H](C)CC)C(C)C)C(N)=O; setting = 24 h, 37 °C, Mueller-Hinton broth, no additive; MIC = 32 µM
Compound = CC(=O)N[C@H](Cc1cccc(F)c1)C(=O)N[C@@H](CCN)C(=O)N[C@H](C(=O)N[C@@H](CCN)C(=O)N[C@H]1CCNC(=O)[C@H]([C@@H](C)O)NC(=O)[C@H](CCN)NC(=O)[C@H](CCN)NC(=O)[C@H](CC(C)C)NC(=O)[C@@H](Cc2ccccc2)NC(=O)[C@H](CCN)NC1=O)[C@@H](C)O; test = broth microdilution; system = ATCC 25922, colistin-susceptible; MIC = 0.25 to 0.5 µg/mL
Compound = CC[C@H](C)[C@H](NC(=O)[C@@H](CCCNC(=N)N)NC(=O)[C@H](CCCNC(=N)N)NC(=O)[C@@H]1CCCN1C(=O)[C@@H]1CCCN1C(=O)[C@H](CCCCNC(=N)N)NC(=O)[C@@H]1CCCN1C(=O)[C@H](CCCNC(=N)N)NC(=O)[C@@H]1CCCN1C(=O)[C@H](CC(C)C)NC(=O)[C@H](Cc1ccc(O)cc1)NC(=O)[C@@H]1CCCN1C(=O)[C@@H]1CCCN1C(=O)[C@H](CCCCN)NC(=O)[C@H](CC(=O)O)NC(=O)[C@@H](N)C(C)C)C(=O)N[C@@H](Cc1ccc(O)cc1)C(=O)N[C@@H](CC(N)=O)C(=O)N[C@H](CCCNC(=N)N)C(N)=O; test = broth microdilution; system = ATCC 25922; setting = 18 h, 37 °C, 25% MHB2; MIC = 16 µg/mL
Compound = CC(C)C[C@@H](NC(=O)[C@H](NC(=O)[C@@H](CCCCN)NC(=O)[C@@H](CCCCN)NC(=O)[C@@H](CC(C)C)NC(=O)[C@@H](Cc1c[nH]c2ccccc12)NC(=O)[C@@H](CCCCN)NC(=O)[C@@H](CC(C)C)NC(=O)[C@@H](CC(C)C)NC(=O)[C@@H](CCCCN)NC(=O)[C@@H](CCCCN)NC(=O)[C@H](N)C(C)C)C(C)C)C(N)=O; setting = 24 h, 37 °C, Mueller-Hinton broth, no additive; MIC = 8 µM
Compound = CC[C@H](C)[C@H](NC(=O)[C@@H](CCCNC(=N)N)NC(=O)[C@H](CCCNC(=N)N)NC(=O)[C@@H](NC(=O)[C@H](Cc1c[nH]c2ccccc12)NC(=O)[C@H](CCCNC(=N)N)NC(=O)[C@@H]1CCCN1C(=O)[C@H](CCCNC(=N)N)NC(=O)[C@@H]1CCCN1C(=O)[C@H](CC(C)C)NC(=O)[C@H](Cc1ccc(O)cc1)NC(=O)[C@@H]1CCCN1C(=O)[C@@H]1CCCN1C(=O)[C@H](CCCCN)NC(=O)[C@H](CC(=O)O)NC(=O)[C@@H](N)C(C)C)C(C)C)C(=O)N[C@@H](Cc1ccc(O)cc1)C(=O)N[C@@H](CC(N)=O)C(=O)N[C@H](CCCNC(=N)N)C(N)=O; test = broth microdilution; system = MC4100; setting = 18 h, 37 °C, 25% MHB2; MIC = 16 µg/mL
Compound = CC[C@H](C)[C@H](N)C(=O)N[C@@H](CCCNC(=N)N)C(=O)N[C@H](C(=O)N[C@@H](Cc1c[nH]c2ccccc12)C(=O)N[C@@H](Cc1ccccc1)C(=O)N[C@H](C(=O)N[C@@H](CCCCN)C(=O)N[C@H](C(=O)N[C@@H](CCCNC(=N)N)C(=O)N[C@@H](CCCCN)C(=O)N[C@@H](CCSC)C(=O)N[C@@H](CCCCN)C(=O)N[C@@H](C)C(=O)N[C@H](C(=O)N[C@@H](Cc1ccc(O)cc1)C(=O)N[C@@H](Cc1c[nH]cn1)C(N)=O)[C@@H](C)CC)C(C)C)[C@@H](C)CC)C(C)C; test = broth dilution; system = ATCC 25922, Mueller-Hinton broth; setting = 24 h, 37 °C; MIC = 50 µM

Repeated from above:
Compound = CCCCCCCCCCCC(=O)C(C)C(=O)N1CCC[C@H]1C(=O)NC(C)(C)C(=O)NC(C)(C)C(=O)NC(C)(C)C(=O)N[C@](C)(CC)C(=O)NCCC(=O)N[C@@H](C)C(=O)N[C@](C)(CC)C(=O)N[C@@H](C)C(=O)N[C@@H](CC(C)C)C(=O)N[C@](C)(CC)C(=O)NCCC(=O)N[C@@H](C)C(=O)N[C@](C)(CC)C(=O)NCCC(=O)N[C@@H](C)C(=O)NC(C)(C)C(=O)NC(C)(C)C(=O)NC(C)(C)C(=O)N[C@@H](C)C(=O)N[C@@H](CC(=O)O)C(=O)O (stereo partly drawn); system = BW25113; MIC = > 128 µg/mL
Compound = CC[C@H](C)[C@H](NC(=O)[C@@H](CCCNC(=N)N)NC(=O)[C@H](CCCNC(=N)N)NC(=O)[C@@H]1CCCN1C(=O)[C@@H]1CCCN1C(=O)[C@H](CCCNC(=N)N)NC(=O)[C@@H]1CCCN1C(=O)[C@H](CCCNC(=N)N)NC(=O)[C@@H]1CCCN1C(=O)[C@H](CC(C)C)NC(=O)[C@H](Cc1c[nH]cn1)NC(=O)[C@@H]1CCCN1C(=O)[C@@H]1CCCN1C(=O)[C@H](CCCCN)NC(=O)[C@H](CC(=O)O)NC(=O)[C@@H](N)C(C)C)C(=O)N[C@@H](Cc1ccc(O)cc1)C(=O)N[C@@H](CC(N)=O)C(=O)N[C@H](CCCNC(=N)N)C(N)=O; test = broth microdilution; system = MC4100; setting = 18 h, 37 °C, 25% MHB2; MIC = 4 µg/mL
